Measurements pooled from the literature.
A part holds a random share of what one study measured. Values joined by “and” are separate records of one study, mostly repeats; a detail may differ.

Study 1
Target: Calcium/calmodulin-dependent protein kinase type II subunit alpha (CAMK2A, Homo sapiens, UniProt Q9UQM7)
Sequence of UniProt Q9UQM7 (whole entry, looked up): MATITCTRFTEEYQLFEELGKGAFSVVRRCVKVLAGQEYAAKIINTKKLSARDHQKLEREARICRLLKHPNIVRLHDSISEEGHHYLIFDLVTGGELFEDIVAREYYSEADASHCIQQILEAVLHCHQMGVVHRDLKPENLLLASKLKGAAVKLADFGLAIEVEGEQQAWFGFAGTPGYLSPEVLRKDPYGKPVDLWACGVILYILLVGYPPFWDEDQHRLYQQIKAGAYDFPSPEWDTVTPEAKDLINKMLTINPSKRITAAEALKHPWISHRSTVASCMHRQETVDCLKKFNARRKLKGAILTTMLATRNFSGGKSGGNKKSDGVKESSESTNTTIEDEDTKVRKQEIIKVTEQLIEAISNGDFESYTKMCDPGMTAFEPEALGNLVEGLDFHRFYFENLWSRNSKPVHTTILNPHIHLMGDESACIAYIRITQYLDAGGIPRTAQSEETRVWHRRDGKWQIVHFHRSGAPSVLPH
Effect on: enzyme activity
Mode: inhibitor
Concentration: 10 µM
| SMILES | inhibition |
| --- | --- |
| C/C=C(\C)C(=O)N[C@@H](c1ccccc1)[C@@H](O)C(=O)O[C@H]1C[C@@]2(O)[C@@H](OC(=O)c3ccccc3)[C@@H]3[C@]4(OC(C)=O)CO[C@@H]4C[C@H](O)[C@@]3(C)C(=O)[C@H](OC(C)=O)C(=C1C)C2(C)C | 1% |
| CN1CCc2cc3c(cc2[C@H]1[C@@H]1OC(=O)c2c1ccc1c2OCO1)OCO3 | -17% |
| O=C1CCC[C@@H]2[C@H]3CCCN4CCC[C@@H](CN12)[C@@H]34 | 2% |
| C=C(C)C(=O)O[C@H]1[C@@H]2[C@H](C)C(=O)O[C@@H]2C[C@@H](C)[C@@H]2C=CC(=O)[C@]21C | 18% |
| OCCOc1ccccc1 | 2% |
| CC1=C2C[C@H]3[C@@H](CC=C4C[C@@H](O)CC[C@@]43C)[C@@H]2CC[C@]12O[C@@H]1C[C@H](C)CN[C@H]1[C@H]2C | 8% |
| S=C=NCc1ccccc1 | -6% |

Study 2
Target: Serine/threonine-protein kinase 33 (STK33, Homo sapiens, UniProt Q9BYT3)
Sequence of UniProt Q9BYT3 (whole entry, looked up): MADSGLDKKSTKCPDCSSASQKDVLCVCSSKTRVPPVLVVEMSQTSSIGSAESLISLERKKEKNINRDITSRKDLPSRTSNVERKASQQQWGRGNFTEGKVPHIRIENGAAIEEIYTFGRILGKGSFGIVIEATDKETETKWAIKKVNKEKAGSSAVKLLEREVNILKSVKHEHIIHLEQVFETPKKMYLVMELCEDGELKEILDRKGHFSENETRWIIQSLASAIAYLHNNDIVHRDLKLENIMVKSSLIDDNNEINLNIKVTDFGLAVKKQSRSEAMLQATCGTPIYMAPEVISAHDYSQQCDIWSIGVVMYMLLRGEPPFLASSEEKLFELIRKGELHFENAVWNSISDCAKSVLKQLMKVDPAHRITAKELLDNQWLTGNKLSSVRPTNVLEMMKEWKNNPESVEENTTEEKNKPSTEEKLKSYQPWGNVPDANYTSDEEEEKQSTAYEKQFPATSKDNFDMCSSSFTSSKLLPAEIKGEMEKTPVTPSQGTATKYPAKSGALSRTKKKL
Effect on: enzyme activity
Mode: inhibitor
Technique: radiometric
Concentration: 0.5 µM
| SMILES | remaining activity |
| --- | --- |
| NC(=O)c1cccc(-c2cc(Nc3ccc(OC(F)(F)F)cc3)ncn2)c1 | 92.1% |
| CC(C)(C)c1nc2c3cc[nH]c(=O)c3c3cc(F)ccc3c2[nH]1 | 53.8% |
| CCn1cnc2c(Nc3cccc(Cl)c3)nc(N[C@H]3CCCC[C@H]3N)nc21 | 88.9% |
| COc1cc2c(N3CCN(C(=O)Nc4ccc(OC(C)C)cc4)CC3)ncnc2cc1OCCCN1CCCCC1 | 91.1% |
| CCN(CC)CCCCN1c2ccccc2Oc2ccc(Cl)cc21 | 89.9% |
| Clc1ccc(Nc2nnc(Cc3ccncc3)c3ccccc23)cc1 | 94.2% |
| CC(C)n1cnc2c(Nc3cccc(Cl)c3)nc(NCCO)nc21 | 68.1% |
| O=C1c2ccccc2-c2nc3nnnn3nc21 | 107% |
| O=C(O)/C=C/c1cc(Br)c(Br)c(Br)c1Br | 67.9% |
| O=Nc1c(-c2c(O)[nH]c3ccccc23)[nH]c2ccccc12 | 44.1% |
| c1cc(-c2cnn3cc(-c4ccc(OCCN5CCCCC5)cc4)cnc23)ccn1 | 37.4% |
| Nc1nc(Nc2ccc(S(N)(=O)=O)cc2)nn1C(=S)Nc1c(F)cccc1F | 35.1% |
| C[C@@H](N)[C@H]1CC[C@H](C(=O)Nc2ccncc2)CC1 | 103% |
| COc1cc2c(Nc3ccc(Br)cc3F)ncnc2cc1OCC1CCN(C)CC1 | 85.1% |
| O=C(c1ccccc1)c1ccc(N2CCOCC2)cc1O | 108% |
| CCCCc1c(-c2ccc(O)cc2)[nH]c2nccnc12 | 80.8% |
| FC(F)(F)c1ccc(/C=C/c2nc(COc3ccc(CCCCn4ccnn4)cc3)co2)cc1 | 93.7% |
| N#C/C(=C(/N)SC1C=CC=CC1)c1cccc(C(O)c2ccncc2)c1 (stereo not drawn) | 95.5% |
| CC(C)N(CCC(=O)c1ccc2ccccc2c1)Cc1ccccc1 | 104% |
| CNc1cc2c(Nc3cccc(Br)c3)ncnc2cn1 | 95.2% |
| O=c1c(-c2ccc(F)cc2)c(-c2ccncc2)[nH]n1-c1ccc(Cl)cc1 | 101% |
| O=C1NC(=O)/C(=C/c2ccc3c(c2)OC(F)(F)O3)S1 | 90.8% |
| N#CC(c1ccnc(NCCc2cccnc2)n1)c1nc2ccccc2s1 (stereo not drawn) | 55.4% |
| NC(=O)c1ccc(-c2nc(-c3ccc4c(c3)OCCO4)c(-c3ccccn3)[nH]2)cc1 | 98.3% |

Study 3
Cell line: mouse MPNST tumor cells
Technique: high-content nuclear imaging
Refers to: cell number
Concentration: 10 µM
Time: 12 h
Notes: mean of 2 replicates
Reference: plate mean
Direction: higher = more cells
| Compound | nuclei count [z-score] |
| --- | --- |
| CN1C(=O)C(Cc2ccc3ccccc3c2)N=C(c2ccc(O)cc2)c2cc(Cl)ccc21 (stereo not drawn) | 4.1 |
| CC(=O)O[C@H]1CC[C@@]2(C)C(=CC[C@@H]3[C@@H]2CC[C@]2(C)C(=O)CC[C@@H]32)C1 | 0.512 |
| Cc1cccc(C)c1NC1=NCCCS1 | 1.03 |
| COc1ccc2[nH]c(-c3ccccc3)c(CCN(C)C)c2c1 | 1.21 |
| N#Cc1cn([C@@H]2O[C@H](CO)[C@@H](O)[C@H]2O)c2ncnc(N)c12 | -4.57 |
| CCCN1CCC[C@@H]2Cc3n[nH]cc3C[C@H]21 | 1.02 |
| Cc1cc(SCc2sc(-c3ccc(C(F)(F)F)c(F)c3)nc2C)ccc1OCC(=O)O | 1.53 |

Study 4
Target: Eukaryotic initiation factor 4A-III (Homo sapiens, UniProt P38919)
Sequence of UniProt P38919 (whole entry, looked up): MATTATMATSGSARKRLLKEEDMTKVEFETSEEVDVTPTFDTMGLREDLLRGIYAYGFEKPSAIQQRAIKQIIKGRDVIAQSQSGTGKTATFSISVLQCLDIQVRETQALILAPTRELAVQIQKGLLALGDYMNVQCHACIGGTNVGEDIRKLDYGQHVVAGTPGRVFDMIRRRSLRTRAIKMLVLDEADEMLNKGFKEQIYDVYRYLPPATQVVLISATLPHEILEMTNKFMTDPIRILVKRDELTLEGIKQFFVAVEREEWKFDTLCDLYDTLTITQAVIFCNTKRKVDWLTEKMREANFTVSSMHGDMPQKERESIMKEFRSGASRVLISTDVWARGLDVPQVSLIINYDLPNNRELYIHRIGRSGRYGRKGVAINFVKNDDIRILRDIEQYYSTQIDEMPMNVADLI
Effect on: RNA clamping
Technique: fluorescence polarization
Concentration: concentration not given
Notes: mean of two replicates
Together with: FAM-labelled poly r(AG)8 RNA
| Compound | fluorescence polarization change |
| --- | --- |
| COC(=O)[C@@H]1[C@@H](c2ccccc2)[C@]2(c3ccc(Br)cc3)Oc3cc(OC)cc(OC)c3[C@@]1(O)C2(O)O | 4.4 mP |
| COc1ccc([C@@]23Oc4cc(OC)cc(OC)c4[C@]2(O)c2nc(-c4ccc(OCc5ccccc5)cc4)[nH]c(=O)c2[C@H]3c2ccccc2)cc1 | 2.1 mP |
| COC(=O)[C@@H]1[C@@H](c2ccccc2)[C@]2(c3ccc(OC)cc3)Oc3cc(OC)cc(OC)c3[C@@]23N=C(C2CC2)N[C@@]13O | 65.5 mP and 30 mP |
| COc1ccc([C@@]23Oc4cc(OC)cc(OC)c4[C@@]24NC(C2CC2)=N[C@@]4(O)[C@H](C(=O)N(C)OC)[C@H]3c2ccccc2)cc1 | 49.6 mP |
| COc1ccc([C@@]23Oc4cc(OC)cc(OC)c4[C@]2(O)c2nc(-c4ccc(F)cc4)[nH]c(=O)c2[C@H]3c2ccccc2)cc1 | 7.9 mP |
| C#CCOc1nc(-c2ccccc2)nc2c1[C@@H](c1ccccc1)[C@]1(c3ccc(OC)cc3)Oc3cc(OC)cc(OC)c3[C@]21OCC#C | 11.6 mP |
| COc1ccc([C@@]23Oc4cc(OC)cc(OC)c4[C@]2(O)c2nc(Cc4ccccc4)[nH]c(=O)c2[C@H]3c2ccccc2)cc1 | 16.4 mP |
| COC(=O)[C@@H]1[C@@H](c2ccccc2)[C@@]2(c3ccc(Br)cc3)C(=O)[C@]1(O)c1c(OC)cc(OC)cc1N2C | 3 mP |
| COC(=O)[C@H]1[C@H](c2ccccc2)[C@]2(c3ccc(OC)cc3)Oc3cc(OC)cc(OC)c3[C@@]1(O)C2O (stereo partly drawn) | -1.9 mP |
| CCOc1ccccc1-c1nc2c(c(=O)[nH]1)[C@@H](c1ccccc1)[C@]1(c3ccc(OC)cc3)Oc3cc(OC)cc(OC)c3[C@]21O | 40 mP |

A few entries again (study 3):
| Compound | nuclei count [z-score] |
| --- | --- |
| CN1C(=O)C(Cc2ccc3ccccc3c2)N=C(c2ccc(O)cc2)c2cc(Cl)ccc21 (stereo not drawn) | 4.1 |
| CC(=O)O[C@H]1CC[C@@]2(C)C(=CC[C@@H]3[C@@H]2CC[C@]2(C)C(=O)CC[C@@H]32)C1 | 0.512 |
| Cc1cccc(C)c1NC1=NCCCS1 | 1.03 |
| COc1ccc2[nH]c(-c3ccccc3)c(CCN(C)C)c2c1 | 1.21 |
| N#Cc1cn([C@@H]2O[C@H](CO)[C@@H](O)[C@H]2O)c2ncnc(N)c12 | -4.57 |
| CCCN1CCC[C@@H]2Cc3n[nH]cc3C[C@H]21 | 1.02 |
